{"data": "Measurements of several laboratories", "note": "Each numbered part is a random draw from the data of one study; scales do not carry over between parts.", "UniProt Q9UL54, sequence (whole entry, looked up)": "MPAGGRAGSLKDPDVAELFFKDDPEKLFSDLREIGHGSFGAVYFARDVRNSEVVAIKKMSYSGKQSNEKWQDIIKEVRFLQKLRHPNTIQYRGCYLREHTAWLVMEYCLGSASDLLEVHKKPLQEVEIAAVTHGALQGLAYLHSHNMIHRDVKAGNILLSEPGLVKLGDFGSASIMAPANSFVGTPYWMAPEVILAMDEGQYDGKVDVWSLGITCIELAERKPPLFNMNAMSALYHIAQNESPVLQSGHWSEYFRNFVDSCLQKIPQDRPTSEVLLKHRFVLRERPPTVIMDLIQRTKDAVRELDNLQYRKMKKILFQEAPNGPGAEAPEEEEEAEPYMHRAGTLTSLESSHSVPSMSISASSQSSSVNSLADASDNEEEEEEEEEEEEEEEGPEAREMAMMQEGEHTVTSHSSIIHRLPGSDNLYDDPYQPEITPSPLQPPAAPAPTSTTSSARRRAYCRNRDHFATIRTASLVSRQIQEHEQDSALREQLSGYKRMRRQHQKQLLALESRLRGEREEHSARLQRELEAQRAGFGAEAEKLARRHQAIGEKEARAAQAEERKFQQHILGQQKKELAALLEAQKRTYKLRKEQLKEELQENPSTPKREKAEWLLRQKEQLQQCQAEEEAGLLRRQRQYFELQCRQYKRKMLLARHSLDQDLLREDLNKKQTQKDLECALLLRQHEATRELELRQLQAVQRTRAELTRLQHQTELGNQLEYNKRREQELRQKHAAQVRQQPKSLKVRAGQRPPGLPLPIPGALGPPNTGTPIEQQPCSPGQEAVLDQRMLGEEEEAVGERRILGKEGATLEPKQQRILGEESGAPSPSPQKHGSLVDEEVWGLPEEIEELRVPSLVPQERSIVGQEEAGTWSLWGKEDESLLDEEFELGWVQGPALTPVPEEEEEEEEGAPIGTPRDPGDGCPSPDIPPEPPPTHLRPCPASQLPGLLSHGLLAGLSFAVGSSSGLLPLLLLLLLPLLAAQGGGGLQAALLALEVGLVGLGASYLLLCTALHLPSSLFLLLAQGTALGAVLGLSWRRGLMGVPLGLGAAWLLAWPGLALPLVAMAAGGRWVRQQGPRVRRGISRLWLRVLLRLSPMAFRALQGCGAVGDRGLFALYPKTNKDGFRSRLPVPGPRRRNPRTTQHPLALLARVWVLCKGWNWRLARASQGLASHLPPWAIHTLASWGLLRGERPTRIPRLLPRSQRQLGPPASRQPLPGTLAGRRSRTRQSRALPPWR", "UniProt Q13163, sequence (whole entry, looked up)": "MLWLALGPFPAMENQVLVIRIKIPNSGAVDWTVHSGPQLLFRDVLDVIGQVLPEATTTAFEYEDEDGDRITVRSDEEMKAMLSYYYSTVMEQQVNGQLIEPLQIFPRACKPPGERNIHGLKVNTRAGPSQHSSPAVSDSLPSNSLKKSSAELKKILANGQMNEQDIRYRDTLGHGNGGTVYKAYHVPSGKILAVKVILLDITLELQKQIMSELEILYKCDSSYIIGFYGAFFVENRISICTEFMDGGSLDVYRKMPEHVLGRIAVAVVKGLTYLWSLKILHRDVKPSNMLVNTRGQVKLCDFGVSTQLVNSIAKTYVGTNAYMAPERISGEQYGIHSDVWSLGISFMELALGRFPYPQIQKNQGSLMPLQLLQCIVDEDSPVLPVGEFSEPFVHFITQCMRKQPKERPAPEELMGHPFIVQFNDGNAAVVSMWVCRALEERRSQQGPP"}
{"data": "Sample 1", "host": "human", "matrix": "microsomes or S9", "concentration": "2 µM", "time": "0.5 h"}
{"SMILES": "Cc1cc(C)cc(C(O)CN(C)Cc2cc(Cl)cn2C)c1 (stereo not shown)", "remaining compound": "5.15%"}
{"SMILES": "Cc1cc(C(=O)Nc2nnc3n2CCCC3)n(C)n1", "remaining compound": "95%"}
{"SMILES": "Cc1nn(C)cc1-c1nn(-c2ccccc2)c(-c2cn(C)nc2C)c1C", "remaining compound": "74%"}
{"SMILES": "OCC(O)Cn1c(-c2ccc(F)cc2)nc2ccccc21 (stereo not shown)", "remaining compound": "87.7%"}
{"SMILES": "O=C(O)c1ccc2c(Br)c(O)c(C(=O)O)cc2c1", "remaining compound": "56.9%"}
{"data": "Sample 2", "target": "Protein kinase C alpha type (PRKCA, Homo sapiens, UniProt P17252)", "read-out": "enzyme activity", "action": "inhibitor", "concentration": "0.5 µM", "relative to": "control"}
{"SMILES": "Cc1cccc(-c2[nH]c(C(C)(C)C)nc2-c2ccc3c(c2)OCO3)n1", "remaining activity": "99.6%"}
{"SMILES": "COc1cc2nccc(Oc3ccc(NC(=S)NC(=O)c4ccccc4C)cc3)c2cc1OC", "remaining activity": "91.3%"}
{"SMILES": "Cc1ccc(Nc2nccc(N(C)c3ccc4c(C)n(C)nc4c3)n2)cc1S(N)(=O)=O", "remaining activity": "94.4%"}
{"SMILES": "Nc1ncnc2n[nH]c(Nc3ccc(F)cc3)c12", "remaining activity": "98%"}
{"SMILES": "O=C(Nc1cccc(Nc2cc(Nc3cccc(C(F)(F)F)c3)ncn2)c1)C1CC1", "remaining activity": "101%"}
{"SMILES": "O=S(=O)(c1cccc2cnccc12)N1CCCNCC1", "remaining activity": "94.8%"}
{"SMILES": "COc1cc2ncnc(Nc3ccc(F)c(Cl)c3)c2cc1OCCCN1CCOCC1", "remaining activity": "93.6%"}
{"SMILES": "N#CC(C#N)=C(N)/C(C#N)=C/c1ccc(O)cc1", "remaining activity": "97.4%"}
{"SMILES": "Nc1ccc2ncnc(NCCc3ccc(Oc4ccccc4)cc3)c2c1", "remaining activity": "103%"}
{"SMILES": "Cn1c2ccccc2c2c3c(c4c5ccccc5n(CCC#N)c4c21)CNC3=O", "remaining activity": "7.58%"}
{"SMILES": "O=C1NC(=O)C(c2cn(CCCn3ccnc3)c3ccccc23)=C1Nc1ccccc1", "remaining activity": "32%"}
{"SMILES": "Cc1ccc(NC(=O)c2ccc(CN3CCN(C)CC3)cc2)cc1Nc1nc(-c2cccnc2)cs1", "remaining activity": "110%"}
{"SMILES": "O=C(O)c1ccc2c3c1cccc3c(=O)n1c3ccccc3nc21", "remaining activity": "101%"}
{"SMILES": "NCCNc1ncc(C(N)=O)c(Nc2cccc(C(F)(F)F)c2)n1", "remaining activity": "60.9%"}
{"data": "Sample 3", "target": "DNA polymerase theta, ATPase domain (POLQ, Homo sapiens, UniProt O75417)", "action": "inhibitor", "concentration": "77 µM", "UniProt O75417, sequence (whole entry, unmodified, looked up)": "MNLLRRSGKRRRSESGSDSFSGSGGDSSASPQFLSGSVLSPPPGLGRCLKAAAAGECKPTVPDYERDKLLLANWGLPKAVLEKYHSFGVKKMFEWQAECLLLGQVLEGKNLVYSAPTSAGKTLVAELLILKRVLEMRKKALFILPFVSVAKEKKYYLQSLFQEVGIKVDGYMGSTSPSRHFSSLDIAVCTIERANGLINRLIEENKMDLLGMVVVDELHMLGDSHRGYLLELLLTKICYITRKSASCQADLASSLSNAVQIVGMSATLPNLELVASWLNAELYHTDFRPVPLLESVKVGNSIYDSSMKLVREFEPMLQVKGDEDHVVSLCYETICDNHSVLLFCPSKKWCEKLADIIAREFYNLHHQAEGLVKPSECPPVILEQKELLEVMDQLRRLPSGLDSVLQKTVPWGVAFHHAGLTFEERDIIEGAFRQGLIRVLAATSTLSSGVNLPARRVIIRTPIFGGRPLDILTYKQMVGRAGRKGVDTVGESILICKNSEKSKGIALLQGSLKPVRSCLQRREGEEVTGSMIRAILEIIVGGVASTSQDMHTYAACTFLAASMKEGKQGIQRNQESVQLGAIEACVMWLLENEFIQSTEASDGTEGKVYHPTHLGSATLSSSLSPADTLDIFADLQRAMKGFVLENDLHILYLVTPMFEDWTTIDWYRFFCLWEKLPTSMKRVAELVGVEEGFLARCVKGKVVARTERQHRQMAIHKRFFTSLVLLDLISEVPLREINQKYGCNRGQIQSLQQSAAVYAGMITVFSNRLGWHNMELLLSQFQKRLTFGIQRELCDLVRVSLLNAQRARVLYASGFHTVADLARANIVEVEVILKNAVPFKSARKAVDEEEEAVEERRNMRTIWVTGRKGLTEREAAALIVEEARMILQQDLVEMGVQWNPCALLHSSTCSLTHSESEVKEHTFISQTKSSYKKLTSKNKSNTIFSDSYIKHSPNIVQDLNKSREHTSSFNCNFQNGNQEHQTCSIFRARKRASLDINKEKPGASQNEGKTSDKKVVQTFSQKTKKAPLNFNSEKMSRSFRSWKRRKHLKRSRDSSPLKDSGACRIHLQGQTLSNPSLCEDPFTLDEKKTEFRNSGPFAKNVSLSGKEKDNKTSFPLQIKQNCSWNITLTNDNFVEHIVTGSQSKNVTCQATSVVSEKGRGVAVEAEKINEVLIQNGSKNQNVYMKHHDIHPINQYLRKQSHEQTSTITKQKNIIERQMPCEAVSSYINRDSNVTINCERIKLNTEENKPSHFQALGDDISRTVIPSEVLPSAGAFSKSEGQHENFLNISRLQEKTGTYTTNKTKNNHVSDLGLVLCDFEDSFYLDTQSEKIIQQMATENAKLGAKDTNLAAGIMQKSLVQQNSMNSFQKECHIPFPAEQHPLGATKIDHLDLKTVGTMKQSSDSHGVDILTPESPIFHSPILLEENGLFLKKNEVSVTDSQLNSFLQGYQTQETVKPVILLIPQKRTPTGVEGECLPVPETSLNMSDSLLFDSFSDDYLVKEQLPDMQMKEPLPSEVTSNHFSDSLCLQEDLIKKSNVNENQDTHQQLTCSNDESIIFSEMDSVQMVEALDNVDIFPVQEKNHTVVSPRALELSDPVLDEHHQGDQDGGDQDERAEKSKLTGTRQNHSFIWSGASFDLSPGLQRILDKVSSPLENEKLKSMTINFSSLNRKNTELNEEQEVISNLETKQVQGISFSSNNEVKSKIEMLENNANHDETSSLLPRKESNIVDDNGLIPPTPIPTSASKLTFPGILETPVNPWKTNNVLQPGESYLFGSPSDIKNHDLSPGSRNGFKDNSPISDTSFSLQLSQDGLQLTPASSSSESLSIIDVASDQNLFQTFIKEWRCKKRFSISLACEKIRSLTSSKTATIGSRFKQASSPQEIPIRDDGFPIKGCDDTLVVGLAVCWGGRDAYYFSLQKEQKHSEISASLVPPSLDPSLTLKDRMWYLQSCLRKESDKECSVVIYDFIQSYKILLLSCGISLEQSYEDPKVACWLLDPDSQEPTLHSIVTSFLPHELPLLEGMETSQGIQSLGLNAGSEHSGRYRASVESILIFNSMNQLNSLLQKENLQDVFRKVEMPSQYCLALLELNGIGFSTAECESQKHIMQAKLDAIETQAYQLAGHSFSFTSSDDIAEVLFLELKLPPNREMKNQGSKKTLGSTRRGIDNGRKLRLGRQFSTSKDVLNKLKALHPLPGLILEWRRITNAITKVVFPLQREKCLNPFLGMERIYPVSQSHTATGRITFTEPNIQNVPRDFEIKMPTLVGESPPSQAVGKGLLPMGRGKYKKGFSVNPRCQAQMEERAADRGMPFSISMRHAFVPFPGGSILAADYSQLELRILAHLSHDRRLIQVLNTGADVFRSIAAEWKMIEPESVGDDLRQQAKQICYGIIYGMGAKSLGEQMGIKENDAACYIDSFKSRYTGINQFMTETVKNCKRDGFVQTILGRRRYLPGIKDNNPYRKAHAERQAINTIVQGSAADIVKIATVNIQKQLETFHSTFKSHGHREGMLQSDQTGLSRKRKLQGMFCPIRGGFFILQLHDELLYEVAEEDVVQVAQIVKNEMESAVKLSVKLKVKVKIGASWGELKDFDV"}
{"SMILES": "OCCOCCN1CCN(C2=Nc3ccccc3Sc3ccccc32)CC1", "remaining activity": "80.5%"}
{"SMILES": "CNCCCC12CCC(c3ccccc31)c1ccccc12", "remaining activity": "101%"}
{"SMILES": "O=C1CN(/N=C/c2ccc([N+](=O)[O-])o2)C(=O)N1", "remaining activity": "101%"}
{"SMILES": "COc1ccc2cc([C@@H](C)C(=O)O)ccc2c1", "remaining activity": "90.6%"}
{"data": "Sample 4", "Compound": "CSc1cccnc1N1CCN(Cc2nc3ccccc3[nH]2)CC1", "read-out": "cell-free assay", "technique": "competition with immobilised ligand", "concentration": "1 µM"}
{"target": "MAP3K10 (Homo sapiens, UniProt Q02779)", "remaining binding [%]": 100}
{"target": "Cyclin-dependent kinase 4, with cyclin D1 (CDK4, Homo sapiens, UniProt P11802)", "remaining binding [%]": 77}
{"target": "TAOK2 (Homo sapiens, UniProt Q9UL54)", "remaining binding [%]": 95}
{"target": "MAP2K5 (Homo sapiens, UniProt Q13163)", "remaining binding [%]": 72}
{"target": "GRK7 (Homo sapiens, UniProt Q8WTQ7)", "remaining binding [%]": 87}
{"target": "GRK4 (Homo sapiens, UniProt P32298)", "remaining binding [%]": 88}
{"target": "TIE1 (Homo sapiens, UniProt P35590)", "remaining binding [%]": 100}
{"target": "NIM1K (Homo sapiens, UniProt Q8IY84)", "remaining binding [%]": 84}
{"note": "Some of these lines once more (sample 4):"}
{"target": "MAP3K10 (Homo sapiens, UniProt Q02779)", "remaining binding [%]": 100}
{"target": "Cyclin-dependent kinase 4, with cyclin D1 (CDK4, Homo sapiens, UniProt P11802)", "remaining binding [%]": 77}
{"target": "TAOK2 (Homo sapiens, UniProt Q9UL54)", "remaining binding [%]": 95}
{"target": "MAP2K5 (Homo sapiens, UniProt Q13163)", "remaining binding [%]": 72}
{"target": "GRK7 (Homo sapiens, UniProt Q8WTQ7)", "remaining binding [%]": 87}
